Published values collected from several papers.
Cell line: KM12

SMILES	test	test system	conditions	scale	measurement	result
Cc1cc(C)n(-c2nc(-c3ccc(Cl)cc3)c3c(NC(=O)c4ccccc4)nnc-3[nH]2)n1	SRB		10 µM, NCI60 single-dose screen, colon cancer	baseline: untreated	cell growth	96.5%
CCCCN1CCN(c2ccc3[nH]c(-c4ccc5[nH]c(-c6ccc(OCC)c(OCC)c6)nc5c4)nc3c2)CC1	SRB		10 µM, 48 h		growth percent	-65.6%
O=C(/C=C/C=C/C=C/C1CCCCC1)NC1=C[C@@](O)(/C=C/C=C/C=C/C(=O)NC2=C(O)CCC2=O)[C@@H]2O[C@@H]2C1=O	cell growth, CellTiter-Glo		78 h		GI50	22 µM
C#C[C@@]1(O)[C@@H](CO)O[C@@H](n2cc(F)c3c(N)ncnc32)[C@@H]1O	SRB		NCI-60 screen		TGI	24.9 µM
CCCN1CCN(c2ccc3[nH]c(-c4ccc5[nH]c(-c6cc(OC)c(OC)c(OC)c6)nc5c4)nc3c2)CC1	SRB		10 µM, 48 h		growth percent	77%
O=C(Nc1nnc2n3c(nc(-c4ccc(Cl)cc4)c1-2)SCC3=O)c1ccccc1	SRB		10 µM, NCI60 single-dose screen, colon cancer	baseline: untreated	cell growth	99.3%
S=C([S][Au-][P+](CCCCCC[P+]([Au-][S]C(=S)n1cccn1)(c1ccccc1)c1ccccc1)(c1ccccc1)c1ccccc1)n1cccn1	cell growth, NCI-60 screen		colon cancer		log TGI	-5.76 log10 M
CCOc1ccc(-c2nc3cc(-c4nc5cc(N6CCN(C)CC6)ccc5[nH]4)ccc3[nH]2)cc1OCC	SRB		10 µM, 48 h		growth percent	43%
CSc1nc(-c2ccc(Cl)cc2)c2c(NC(=O)c3ccccc3)nnc-2[nH]1	SRB		10 µM, NCI60 single-dose screen, colon cancer	baseline: untreated	cell growth	100%
C#C[C@@]1(O)[C@@H](CO)O[C@@H](n2cc(Br)c3c(N)ncnc32)[C@@H]1O	SRB		NCI-60 screen		TGI	> 100 µM
O=C(Nc1nnc2n3c(Cc4ccccc4)n[nH]c3nc(-c3ccc(Cl)cc3)c1-2)c1ccccc1	SRB		10 µM, NCI60 single-dose screen, colon cancer	baseline: untreated	cell growth	99.1%
COc1ccc(OC)c(-c2nc3ccc(-c4nc5ccc(N6CCN(C)CC6)cc5[nH]4)cc3[nH]2)c1	SRB		10 µM, 48 h		growth percent	105%
O=C1NCCc2[nH]c(-c3ccncc3)cc21	MTS	colon cancer			IC50	2.28 µM
CCCCN1CCN(c2ccc3[nH]c(-c4ccc5[nH]c(-c6ccc(C(F)(F)F)cc6)nc5c4)nc3c2)CC1	SRB		10 µM, 48 h		growth percent	-88.3%
Cn1cncc1C1=CN(c2ncnc3[nH]cnc23)CCS1			colon cancer		TGI	120 µM

Repeated from above:
SMILES	test	test system	conditions	scale	measurement	result
Cn1cncc1C1=CN(c2ncnc3[nH]cnc23)CCS1			colon cancer		TGI	120 µM
COc1ccc(OC)c(-c2nc3ccc(-c4nc5ccc(N6CCN(C)CC6)cc5[nH]4)cc3[nH]2)c1	SRB		10 µM, 48 h		growth percent	105%
